Measured values pooled from the literature.
Every numbered part comes from another study and shows a few of its results, in no order.
Chain of UniProt Q9SV15 (228-325, looked up): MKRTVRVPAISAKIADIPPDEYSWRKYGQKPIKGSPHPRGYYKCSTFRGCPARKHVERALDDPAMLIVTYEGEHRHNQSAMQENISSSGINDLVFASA

Study 1 — method: protein-binding microarray; form: double-stranded DNA, one strand shown; matrix: in vitro; tested at: not given; direction: higher = stronger binding; measurement: E-score
Target: Protein C-ets-1 (ETS1, Homo sapiens, UniProt P14921, residues 1-441, Y397A, full length assumed)
Chain of UniProt P14921 (whole entry, unmodified, looked up): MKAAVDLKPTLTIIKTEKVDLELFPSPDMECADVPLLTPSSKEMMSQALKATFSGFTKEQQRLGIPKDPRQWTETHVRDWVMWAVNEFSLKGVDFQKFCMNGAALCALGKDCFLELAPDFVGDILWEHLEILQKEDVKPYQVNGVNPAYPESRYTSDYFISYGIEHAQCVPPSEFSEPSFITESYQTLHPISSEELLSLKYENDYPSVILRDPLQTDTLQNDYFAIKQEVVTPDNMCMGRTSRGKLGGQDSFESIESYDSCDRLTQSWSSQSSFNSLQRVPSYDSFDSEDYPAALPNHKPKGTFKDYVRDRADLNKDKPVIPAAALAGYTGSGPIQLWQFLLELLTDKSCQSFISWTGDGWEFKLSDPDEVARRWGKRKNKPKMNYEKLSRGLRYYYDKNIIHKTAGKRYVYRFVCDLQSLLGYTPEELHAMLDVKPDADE
Setting: k-mer, scored over probes, only values ≥0.25
CGACGGGC: 0.251
TGTTGCAA: 0.269
CCTCCCCA: 0.375
GTTTGCGA: 0.313
CAGTGTAC: 0.276
ATTTTGCC: 0.262

Study 2 — observed: enzyme activity; mode: inhibitor; tested at: 20 µM; measurement: inhibition
Target: Replicase polyprotein 1ab, polymerase (rep, Severe acute respiratory syndrome coronavirus 2, UniProt P0DTD1)
N[C@@H](CCC(=O)O)C(=O)O: -1.5%
COc1cc2c(cc1F)C(c1ccccc1Cl)=Nc1c(n[nH]c1C)N2: -2.16%
N#CSc1cc(SC#N)c(N)nc1N: 29.3%
N#Cc1nn(-c2c(Cl)cc(C(F)(F)F)cc2Cl)c(N)c1[S+]([O-])C(F)(F)F (stereo not shown): -3.58%
Nc1ccc(-c2ccc3ncc4ccc(=O)n(-c5cccc(C(F)(F)F)c5)c4c3c2)cn1: -3.88%
CC1(C)OC[C@@H](COC(=O)CCc2ccc(OC[C@@H](O)CNCCNC(=O)N3CCOCC3)cc2)O1: -1.06%
Cc1cc2c(C(C)C)c(O)c(O)c(C=O)c2c(O)c1-c1c(C)cc2c(C(C)C)c(O)c(O)c(C=O)c2c1O: 61.3%
CC(C)C[C@H](NC(=O)[C@H](CCCCN)NC(=O)[C@H](CCCNC(=N)N)NC(=O)[C@H](C)NC(=O)[C@H](CO)NC(=O)[C@H](CCCCN)NC(=O)[C@H](CCCNC(=N)N)NC(=O)[C@H](C)NC(=O)CNC(=O)[C@@H](NC(=O)[C@H](Cc1ccccc1)NC(=O)CNC(=O)CNC(=O)[C@@H](N)Cc1ccccc1)[C@@H](C)O)C(=O)N[C@@H](C)C(=O)N[C@@H](CC(N)=O)C(=O)N[C@@H](CCC(N)=O)C(=O)O: -2.52%
CCn1c2ccccc2c2cc(Nc3ccnc(NCCCN4CCOCC4)n3)ccc21: 1.83%
Cc1ncc([N+](=O)[O-])n1CCO: 12.5%
C/C(=C\c1ccc(C(=O)O)cc1)c1ccc2c(c1)C(C)(C)CCC2(C)C: -2.05%
C[C@H](O)C(=O)Nc1c(I)c(C(=O)NC(CO)CO)c(I)c(C(=O)NC(CO)CO)c1I: 5.71%
c1nc2c(NC3CCCCC3)nc(Nc3ccc(N4CCOCC4)cc3)nc2[nH]1: 1.87%
Nc1nc2[nH]cnc2c(=S)[nH]1: -3.13%
C[N+](C)(C)CCOP(=O)(O)OP(=O)([O-])OC[C@H]1O[C@@H](n2ccc(N)nc2=O)[C@H](O)[C@@H]1O: 13.1%
CCCCCCCCCCCCCCCC[N+](C)(C)CCN(Cc1ccc(OC)cc1)c1ncccn1: 12.1%
Cc1oc(-c2ccccc2)nc1CCOc1ccc(CC2SC(=O)NC2=O)c2sccc12 (stereo not shown): -16.8%
Cc1cc2nc3ccc(N(C)C)cc3[s+]c2cc1N: 102%
CCCC(CCC)C(=O)O: 1.81%
CC(C)[C@@]1(NC(=O)[C@@H]2C[C@@H]3c4cccc5[nH]cc(c45)C[C@H]3N(C)C2)O[C@@]2(O)[C@@H]3CCCN3C(=O)[C@H](Cc3ccccc3)N2C1=O: 15.5%
CC[C@@](C)(Nc1ccnc(-c2c[nH]c3ncccc23)n1)C(=O)NCC(F)(F)F: 3.36%
CCNC(=O)C[C@@H]1N=C(c2ccc(Cl)cc2)c2cc(OC)ccc2-n2c(C)nnc21: -2.68%
C[S+]([O-])CCCCN=C=S (stereo not shown): 0.24%
CO[C@@H]1[C@H](O)[C@@H](CO)O[C@H]1n1cnc2c(NC3CCCCC3)ncnc21: -4.7%
FC(F)(F)c1ccc(/C=C/c2nc(COc3ccc(CCCCn4ccnn4)cc3)co2)cc1: -28.2%

Study 3 — method: RNA Bind-n-Seq; form: RNA; matrix: in vitro; tested at: 365 nM; relative to: no-protein control; direction: higher = stronger binding; measurement: RBNS enrichment (R)
Target: RNA binding protein fox-1 homolog 2, RRM domain, GST-SBP tag (RBFOX2, Homo sapiens, UniProt O43251-10, residues 100-194)
Setting: natural RNA segment, single round, ends assumed
Shared flanks, not repeated: GGGAGUUCUACAGUCCGACGAUC … UGGAAUUCUCGGGUGCCAA
UUAGAUGUUUGUCUUGCACAACAUUGGCAUGAUUUUUCCGGGAGUUUCAUCAGAUCUGAUUUCUGAGAGUCUGGGGAUCUGCCAUGGUGGAAAGUGCCCCUCAAAAGCAU: 0.489
CCCGCCGGGAAGCAGCCCCGGCUCCUGAAUCACCCUCGCUCCGUCAGGCGGGACUCGUGUCCCAGAGAGGAAGGGGCUGCUGAGGUCUGAUGGGGCCCUUCCUCCGGGUG: 0.404
GAUCUCCUCACACUGGUAAUGUCUUUCCUGUUAGAGAGGUUUAUGCUACCACUUCGCAUUUCAUCUGUGAGGCAUUUCAUCUUUUAGACAUGUCUUCAUGUCCAGCUACU: 0.399
UGGCACUGCUUUGCAUUGGAGUCAGUUGUAGUCCACAUAGCUGGCUGCAGAGAAAUCAGUCUUACCCAGCAAGGGGAAGGCACACACAAGUUUGCAGAAAGUGUCUCAGA: 0.497
AUUUUGGAGUCUGUUUGGGAACUUUUAAGACUUCAAAGCAAAGUUAGCUACCAGCAAUUUCUGUAAACCAAGAGAAGAUUGUCACAAAGAUUCACUACUUUCCAACUGAA: 0.411
AAUGCUGAUUCUGAUUCUGAGAUCAAUUUGUGGGAAUUUUACAUAAAUCUUUGUUAAUUACUGAGUGGGCAAGUAGACUUCCUGUCUUUGCUUUCUUUUUUUUUUUCUUU: 1.06
AUUUAUAUAUUGUGAUGAGGAGUACUUUCUGAAGAGUACUUCGUAUUUUUUUUUAAUUGCCUUGUUUGCCUUCAACUUCCUUGAUUUUCAUAGUUUACAUGGGUGUGUGU: 1.22
AGUUUGUAACUUUUGGAACCGGAGAGCCCUGUUUCUUUGGCUGGGCGGUUAUGGCAGCUGAAGGCAAACUGUGAGGUUUGAGUGACGAGGUUCUCAUACCAGCACAUCAC: 0.378

Study 4 — organism: Vesicular stomatitis virus; observed: pseudovirus infection; method: FDA-approved drug library screen; tested at: concentration not given; setting: SARS-CoV-2 spike pseudotype; relative to: vehicle; measurement: GFP-positive cells
O=[As]O[As]=O (stereo not shown): 104%
O=C(O)CCCN1CCC(O[C@@H](c2ccc(Cl)cc2)c2ccccn2)CC1.O=S(=O)(O)c1ccccc1: 99.2%
O=C([O-])c1cc(/N=N/c2ccc(O)c(C(=O)[O-])c2)ccc1O.[Na+].[Na+]: 63.2%

Study 5 — method: protein-binding microarray; form: double-stranded DNA, one strand shown; matrix: in vitro; tested at: 2200 nM top; setting: 60-bp whole probe; added: salmon DNA 0.4 mg/ml; relative to: random background probes; direction: higher = stronger binding; measurement: fitted relative affinity; shared flanks, not repeated: GCCTAGCAC … GTCTTGATTCGCTTGACGCTGCTG
Target: Interferon regulatory factor 7, full length, phosphomimetic (IRF7, Homo sapiens, UniProt Q92985, residues 1-503, S471D/S472D/S475D/S476D/S477D/S483D/S484D/S487D)
Chain of UniProt Q92985 (whole entry, unmodified, looked up): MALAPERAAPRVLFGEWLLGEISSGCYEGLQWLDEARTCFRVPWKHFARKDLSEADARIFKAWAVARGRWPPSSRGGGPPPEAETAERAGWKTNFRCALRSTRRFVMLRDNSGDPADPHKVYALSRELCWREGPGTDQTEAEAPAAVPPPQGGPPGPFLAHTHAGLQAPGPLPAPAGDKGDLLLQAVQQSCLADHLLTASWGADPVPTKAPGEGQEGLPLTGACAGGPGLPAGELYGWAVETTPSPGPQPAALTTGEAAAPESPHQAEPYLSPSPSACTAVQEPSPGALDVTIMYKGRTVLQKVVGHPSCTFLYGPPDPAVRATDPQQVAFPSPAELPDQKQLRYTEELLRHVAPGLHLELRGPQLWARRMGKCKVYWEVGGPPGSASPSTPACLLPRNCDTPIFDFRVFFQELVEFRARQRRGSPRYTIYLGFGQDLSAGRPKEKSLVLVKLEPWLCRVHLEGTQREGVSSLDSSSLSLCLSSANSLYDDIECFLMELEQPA
TCATGTTTGTCCCTATTACTGTGCTAG: 2.68 z-score
TAAGATTTCAGTTTCGATTAGTGCTAG: 8.03 z-score
TCATGTCTGGGCATTTTTACTGTGCTA: -0.202 z-score
CTGGCTTTGACTCTTTCTGTGTGCTAG: 0.693 z-score
TTACATTCCAGTTTCGATTAGTGCTAG: 8 z-score
TTAGATCTCAGTATCGATTCGTGCTAG: 1.11 z-score
TCAGGTTCCCATTCCAGACTGTGCTAG: 2.1 z-score
TTAGATTTCAGTTCCGATTCGTGCTAG: 3.26 z-score

Other studies, line by line
WRKY33 C-terminal DNA-binding domain: Probable WRKY transcription factor 33, C-terminal DNA-binding domain (WRKY33, Arabidopsis thaliana, UniProt Q8S8P5, residues 346-449)
Chain of UniProt Q8S8P5 (346-449, looked up): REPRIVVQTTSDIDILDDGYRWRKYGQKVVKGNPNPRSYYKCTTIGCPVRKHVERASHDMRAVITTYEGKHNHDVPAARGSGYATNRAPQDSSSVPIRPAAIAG
AAAAAATTCCGCGTGTATGTGTACGTAAAA  relative absorbance (WRKY33 C-terminal DNA-binding domain; DNA-protein interaction ELISA; double-stranded DNA, one strand shown, in vitro, bacterial lysate; not given, whole dsDNA probe, crude lysate protein; relative to: highest signal in screen, higher = stronger binding): 66.8 % of maximum
CC(C)n1cnc(-c2ccc(F)cc2)c1-c1ncc(C(=O)Nc2ccc(N3CCN(C)CC3)cc2)[nH]1  patients with neoplasm TEAE (phase 2a clinical trial; patients with idiopathic pulmonary fibrosis; 60 mg once daily, all grades, SOC neoplasms benign, malignant, unspecified): 0%
AAAAAACCCTACATCGCATATAAGAGAAAA  relative absorbance (Probable WRKY transcription factor 11, DNA-binding domain (WRKY11, Arabidopsis thaliana, UniProt Q9SV15, residues 228-325); DNA-protein interaction ELISA; double-stranded DNA, one strand shown, in vitro, bacterial lysate; not given, whole dsDNA probe, crude lysate protein; relative to: highest signal in screen, higher = stronger binding): 19.9 % of maximum
Oc1cc2c(cc1O)C(Cc1cccc3ccccc13)NCC2 (stereo not shown)  inhibition (Replicase polyprotein 1ab, main protease (rep, Severe acute respiratory syndrome coronavirus 2, UniProt P0DTD1); enzyme activity, inhibitor; 20 µM, primary screen): 39.7%
AAAAAACAGGCCGATTCCGATCCCGGAAAA  relative absorbance (WRKY33 C-terminal DNA-binding domain; DNA-protein interaction ELISA; double-stranded DNA, one strand shown, in vitro, bacterial lysate; not given, whole dsDNA probe, crude lysate protein; relative to: highest signal in screen, higher = stronger binding): 32.1 % of maximum

For quick reference, copied from above (study 1):
ATTTTGCC: 0.262
CGACGGGC: 0.251
TGTTGCAA: 0.269
CAGTGTAC: 0.276
GTTTGCGA: 0.313
CCTCCCCA: 0.375
